Measured values of several laboratories.
Protocols differ between the studies behind these lines. Values joined by “and” are separate records of one study, mostly repeats; a detail may differ. ± gives the spread as reported.
uncharacterized protein: uncharacterized protein (Bos taurus, UniProt E1BM68)
USP3 ZnF-UBD domain: Ubiquitin carboxyl-terminal hydrolase 3, ZnF-UBD domain (USP3, Homo sapiens, UniProt Q9Y6I4)
UniProt Q9Y6I4, sequence (whole entry, looked up): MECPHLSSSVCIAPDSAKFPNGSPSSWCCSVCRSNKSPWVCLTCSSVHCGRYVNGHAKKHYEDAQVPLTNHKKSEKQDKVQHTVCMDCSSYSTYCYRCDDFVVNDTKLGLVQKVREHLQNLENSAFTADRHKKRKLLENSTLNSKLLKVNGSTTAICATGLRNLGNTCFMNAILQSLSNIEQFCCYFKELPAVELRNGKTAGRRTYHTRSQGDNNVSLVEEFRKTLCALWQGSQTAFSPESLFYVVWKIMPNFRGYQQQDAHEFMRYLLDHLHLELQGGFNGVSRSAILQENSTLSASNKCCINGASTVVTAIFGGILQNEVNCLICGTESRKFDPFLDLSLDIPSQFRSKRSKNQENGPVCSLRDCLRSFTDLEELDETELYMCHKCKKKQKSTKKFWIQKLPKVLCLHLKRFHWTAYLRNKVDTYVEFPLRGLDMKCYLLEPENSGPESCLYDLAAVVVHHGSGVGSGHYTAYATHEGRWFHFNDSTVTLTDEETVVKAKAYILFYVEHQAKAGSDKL
Ppara: Peroxisome proliferator-activated receptor alpha (Ppara, Mus musculus, UniProt P23204)
UniProt P23204, sequence (whole entry, looked up): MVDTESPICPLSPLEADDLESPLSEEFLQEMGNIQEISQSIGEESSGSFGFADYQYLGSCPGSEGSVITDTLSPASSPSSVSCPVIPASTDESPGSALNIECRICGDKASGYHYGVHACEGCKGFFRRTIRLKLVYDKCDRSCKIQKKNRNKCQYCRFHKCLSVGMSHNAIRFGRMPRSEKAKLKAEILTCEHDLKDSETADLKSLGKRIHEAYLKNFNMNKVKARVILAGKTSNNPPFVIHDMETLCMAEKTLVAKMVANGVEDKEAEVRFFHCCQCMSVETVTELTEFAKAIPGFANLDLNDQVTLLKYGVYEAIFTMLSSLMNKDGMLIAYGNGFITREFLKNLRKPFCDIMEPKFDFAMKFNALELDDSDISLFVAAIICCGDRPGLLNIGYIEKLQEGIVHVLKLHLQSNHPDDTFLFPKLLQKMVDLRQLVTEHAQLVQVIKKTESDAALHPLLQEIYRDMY
NPY1R: Neuropeptide Y receptor type 1 (NPY1R, Homo sapiens, UniProt P25929)
UniProt P25929, sequence (whole entry, looked up): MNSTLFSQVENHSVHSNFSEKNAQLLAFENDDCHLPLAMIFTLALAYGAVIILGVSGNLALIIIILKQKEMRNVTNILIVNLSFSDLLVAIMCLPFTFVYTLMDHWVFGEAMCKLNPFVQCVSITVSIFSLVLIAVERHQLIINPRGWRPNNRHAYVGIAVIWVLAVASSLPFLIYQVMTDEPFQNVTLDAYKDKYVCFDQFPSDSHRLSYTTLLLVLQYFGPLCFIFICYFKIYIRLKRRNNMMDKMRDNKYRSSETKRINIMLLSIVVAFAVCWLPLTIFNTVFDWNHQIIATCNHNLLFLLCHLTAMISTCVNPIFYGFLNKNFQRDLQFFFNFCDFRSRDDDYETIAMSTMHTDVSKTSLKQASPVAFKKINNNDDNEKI
UniProt Q8N884, sequence (whole entry, looked up): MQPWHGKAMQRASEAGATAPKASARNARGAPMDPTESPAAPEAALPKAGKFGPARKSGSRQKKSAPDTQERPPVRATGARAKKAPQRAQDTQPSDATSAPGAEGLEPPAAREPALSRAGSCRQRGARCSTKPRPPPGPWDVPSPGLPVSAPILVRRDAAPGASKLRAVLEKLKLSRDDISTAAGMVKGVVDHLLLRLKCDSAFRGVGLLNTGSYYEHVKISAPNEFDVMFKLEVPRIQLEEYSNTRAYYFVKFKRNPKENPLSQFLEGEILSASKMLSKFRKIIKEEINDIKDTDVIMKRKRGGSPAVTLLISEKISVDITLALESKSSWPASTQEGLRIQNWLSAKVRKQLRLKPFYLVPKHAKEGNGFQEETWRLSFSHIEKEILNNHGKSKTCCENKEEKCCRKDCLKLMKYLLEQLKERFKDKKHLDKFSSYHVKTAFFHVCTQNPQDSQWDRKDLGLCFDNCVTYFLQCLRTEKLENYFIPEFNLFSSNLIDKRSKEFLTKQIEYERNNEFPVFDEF
UniProt P52564, sequence (whole entry, looked up): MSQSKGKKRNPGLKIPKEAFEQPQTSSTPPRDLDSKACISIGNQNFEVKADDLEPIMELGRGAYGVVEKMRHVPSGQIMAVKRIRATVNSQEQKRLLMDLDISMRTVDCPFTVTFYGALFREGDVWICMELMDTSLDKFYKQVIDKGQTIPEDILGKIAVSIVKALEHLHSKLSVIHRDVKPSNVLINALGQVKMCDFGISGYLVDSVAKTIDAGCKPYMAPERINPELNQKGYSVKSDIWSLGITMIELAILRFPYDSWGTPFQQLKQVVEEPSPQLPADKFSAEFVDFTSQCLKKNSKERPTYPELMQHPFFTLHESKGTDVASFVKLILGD
UniProt P48547, sequence (whole entry, looked up): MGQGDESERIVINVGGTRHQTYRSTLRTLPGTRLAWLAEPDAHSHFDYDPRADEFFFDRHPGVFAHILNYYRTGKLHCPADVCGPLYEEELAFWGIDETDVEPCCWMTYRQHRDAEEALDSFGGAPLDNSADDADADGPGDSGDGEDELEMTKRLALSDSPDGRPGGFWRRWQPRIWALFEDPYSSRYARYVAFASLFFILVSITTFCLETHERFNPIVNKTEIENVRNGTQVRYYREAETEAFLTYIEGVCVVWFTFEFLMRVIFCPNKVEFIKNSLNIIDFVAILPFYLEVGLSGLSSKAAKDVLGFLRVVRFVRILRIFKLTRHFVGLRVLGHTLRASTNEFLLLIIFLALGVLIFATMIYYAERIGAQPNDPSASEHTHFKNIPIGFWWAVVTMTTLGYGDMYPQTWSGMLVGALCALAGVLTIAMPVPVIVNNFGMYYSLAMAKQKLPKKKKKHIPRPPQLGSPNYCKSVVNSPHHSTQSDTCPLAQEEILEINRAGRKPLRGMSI
UniProt P19784, sequence (whole entry, looked up): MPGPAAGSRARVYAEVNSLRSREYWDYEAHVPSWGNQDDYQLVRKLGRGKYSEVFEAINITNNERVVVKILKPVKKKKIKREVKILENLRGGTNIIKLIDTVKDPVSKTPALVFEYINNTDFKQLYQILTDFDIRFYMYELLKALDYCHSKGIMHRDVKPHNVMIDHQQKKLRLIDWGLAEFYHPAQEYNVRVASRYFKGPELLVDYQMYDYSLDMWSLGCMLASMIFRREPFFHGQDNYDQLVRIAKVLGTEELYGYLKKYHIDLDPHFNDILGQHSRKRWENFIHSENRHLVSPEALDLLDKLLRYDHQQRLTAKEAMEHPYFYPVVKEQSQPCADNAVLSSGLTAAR
UniProt P34995, sequence (whole entry, unmodified, looked up): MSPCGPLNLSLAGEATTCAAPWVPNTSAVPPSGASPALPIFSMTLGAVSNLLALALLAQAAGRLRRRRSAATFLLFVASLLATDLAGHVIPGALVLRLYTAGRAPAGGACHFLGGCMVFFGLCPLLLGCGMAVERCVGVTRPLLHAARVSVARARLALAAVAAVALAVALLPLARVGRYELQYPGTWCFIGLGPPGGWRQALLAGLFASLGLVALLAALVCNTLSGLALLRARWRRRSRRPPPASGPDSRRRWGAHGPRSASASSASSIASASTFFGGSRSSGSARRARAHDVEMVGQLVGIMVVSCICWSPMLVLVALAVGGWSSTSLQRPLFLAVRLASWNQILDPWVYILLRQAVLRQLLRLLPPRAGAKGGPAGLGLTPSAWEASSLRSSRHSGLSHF

Structure (SMILES) | target or system | assay | test system | setting | how to read | measurement | value
CCc1nccnc1CC | uncharacterized protein | cAMP level, agonist, cAMP luminescence | HEK293 cells | – | – | EC50 | 125 ± 33.9 µM
O=C(O)CCc1cnccn1 | USP3 ZnF-UBD domain | – | – | – | – | Kd | > 1000 µM
CCO[C@H](COc1ccc(C(F)(F)F)cc1)CSc1ccc(OCC(=O)O)c(C)c1 | Ppara | receptor activation, agonist, luciferase reporter | – | serum-free, species mouse | – | EC50 | 7 µM
Nc1nc(CC(=O)O)cs1 | USP3 ZnF-UBD domain | – | – | – | – | Kd | > 1000 µM
COc1nccnc1CC(C)C | uncharacterized protein | cAMP level, agonist, cAMP luminescence | HEK293 cells | – | – | EC50 | 257 ± 34.5 µM
O=C(Nc1ccn(Cc2ccc(O)cc2C(F)(F)F)n1)c1c(F)cccc1F | Voltage-gated potassium channel KCNC1 (KCNC1, Homo sapiens, UniProt P48547) | ion channel activity, agonist | cells overexpressing KCNC1 | human receptor | – | EC50 | > 10 µM
CCCCC[C@H](O)/C=C/[C@H]1[C@H](O)CC(=O)[C@@H]1C/C=C\CCCC(=O)O | Prostaglandin E2 receptor EP1 subtype (PTGER1, Homo sapiens, UniProt P34995, P39S) | IP1 accumulation, agonist | AD293 | EP1 P39S mutant | – | EC50 | 0.0056 µM
CCc1nccnc1OC | Olfactory receptor (Mus musculus, UniProt Q8VGQ8) | cAMP, agonist | HEK293 transfected with Olfactory receptor | – | – | EC50 | 811 ± 27.4 µM
CCOC(=O)c1cnn2c(C)c(Cc3ccc(Cl)nc3)c(C)nc12 | NPY1R | cAMP accumulation, agonist | SK-N-MC | – | – | EC50 | > 100 µM
COc1cc(Nc2ncc3c(n2)-c2ccc(Cl)cc2C(c2c(F)cccc2OC)=NC3)ccc1C(=O)NCCOCCOCCNC(=O)COc1cccc2c1C(=O)N(C1CCC(=O)NC1=O)C2=O (stereo not drawn) | Casein kinase II subunit alpha' (CSNK2A2, Homo sapiens, UniProt P19784) | binding, kinobead competition | MV4-11 cell lysate | – | – | EC50 | > 30 µM
COc1cnccn1 | uncharacterized protein | cAMP level, agonist, cAMP luminescence | HEK293 cells | – | – | EC50 | > 1500 µM
CC[C@H](C)[C@H](NC(=O)[C@H](Cc1ccccc1)NC(=O)[C@H](CCC(=O)O)NC(=O)[C@H](CCCNC(=N)N)NC(=O)[C@H](C)NC(=O)[C@H](C)NC(=O)[C@H](CCC(N)=O)NC(=O)[C@H](CCC(=O)O)NC(=O)[C@H](CCC(=O)O)NC(=O)[C@H](CC(C)C)NC(=O)[C@H](Cc1ccc(O)cc1)NC(=O)[C@H](CO)NC(=O)[C@H](CO)NC(=O)[C@@H](NC(=O)[C@H](CC(=O)O)NC(=O)[C@H](CO)NC(=O)[C@@H](NC(=O)[C@H](Cc1ccccc1)NC(=O)[C@@H](NC(=O)CNC(=O)[C@H](CCC(=O)O)NC(=O)[C@H](C)NC(=O)CCc1c[nH]cn1)[C@@H](C)O)[C@@H](C)O)C(C)C)C(=O)N[C@@H](C)C(=O)N[C@@H](Cc1c[nH]c2ccccc12)C(=O)N[C@@H](CC(C)C)C(=O)N[C@H](C(=O)N[C@@H](CCCNC(=N)N)C(=O)NCC(=O)N[C@@H](CCCNC(=N)N)C(=O)N[C@@H](CCCCNC(=O)COCCOCCNC(=O)COCCOCCNC(=O)CC[C@H](NC(=O)CCCCCCCCCCCCCCCCC(=O)O)C(=O)O)C(=O)O)C(C)C | Glucagon-like peptide 1 receptor (GLP1R, Homo sapiens, UniProt P43220) | cAMP reporter gene, agonist, CRE luciferase | BHK | without Zr, 0% HSA | – | EC50 | 1.9e-06 µM
Cn1cc(-c2ccc(-c3cncc(Cl)c3N3CCC4(CCNC4=O)CC3)cc2)cn1 | COLO 205 | gene expression, microarray, refers to: EDN1 mRNA | – | concentration not given, 2 h | reference: untreated cells | log2 fold change | 2.01
CC[C@@H]1[C@H](F)C(=O)N[C@@H]1COc1nccc2cc(C(N)=O)c(OC)cc12 | Dual specificity mitogen-activated protein kinase kinase 6 (MAP2K6, Homo sapiens, UniProt P52564) | ATP-site probe binding, ActivX profiling | THP-1 cell lysate | Lys2 site | – | IC50 | 4 µM
O=C(O)CCCc1cc2cc(Cl)ccc2n1S(=O)(=O)c1ccc2ncsc2c1 | Ppara | receptor activation, agonist, luciferase reporter | – | serum-free, species mouse | – | EC50 | 2 µM
NS(=O)(=O)c1cccc(-c2ccc(C3CCCCC3)cc2)c1 | – | liver microsome stability | dog liver microsomes | 1 µM | – | hepatic clearance | 19 mL/min/kg
Cc1nn(-c2nc3ccccc3[nH]2)c(O)c1C(c1ccccn1)c1c(C)nn(-c2nc3ccccc3[nH]2)c1O | Cyclic GMP-AMP synthase, catalytic domain; with DNA (CGAS, Homo sapiens, UniProt Q8N884) | cGAS phase separation, inhibitor | – | – | – | EC50 | 6.72 µM and 8.67 µM
CCOC(=O)c1cnc2c(c(C)nn2-c2ccc(Cl)cc2)c1Cl | NPY1R | cAMP accumulation, agonist | SK-N-MC | – | – | EC50 | 16 µM

Repeated from above:
Structure (SMILES) | target or system | assay | test system | setting | how to read | measurement | value
COc1nccnc1CC(C)C | uncharacterized protein | cAMP level, agonist, cAMP luminescence | HEK293 cells | – | – | EC50 | 257 ± 34.5 µM
O=C(O)CCCc1cc2cc(Cl)ccc2n1S(=O)(=O)c1ccc2ncsc2c1 | Ppara | receptor activation, agonist, luciferase reporter | – | serum-free, species mouse | – | EC50 | 2 µM
CCc1nccnc1CC | uncharacterized protein | cAMP level, agonist, cAMP luminescence | HEK293 cells | – | – | EC50 | 125 ± 33.9 µM
